Measured values gathered from unrelated publications.
Lines come from different studies, so protocols differ. ± gives the spread as reported.

C[C@H]1OC[C@H](c2ccc(-c3ccccn3)cc2)N[C@@H]1c1ccc(F)cc1Cl  logD (shake-flask, 1-octanol/buffer; pH 7.4): > 4.7
CCc1c2c(nc3ccc(OC(=O)N4CCC(N5CCCCC5)CC4)cc13)-c1cc3c(c(=O)n1C2)COC(=O)[C@]3(O)CC  tissue concentration (mouse, intestine; intraperitoneal, 50 mg/kg, 24 h): 8780 ± 4650 ng/g
CN(CC#N)C(=O)C[C@H](Nc1nc2ccccc2[nH]1)c1cccc(C(F)(F)F)c1  apparent clearance (human; intravenous infusion, 4 mg/kg, 1 mg/mL formulation): 14.8 ± 5.33 L/h
CC[C@H](C)[C@H](NC(=O)[C@H](Cc1ccccc1)NC(=O)[C@H](CCC(=O)O)NC(=O)[C@H](CCCCNC(=O)COCCOCCNC(=O)COCCOCCNC(=O)CC[C@H](NC(=O)CCCCCCCCCCCCCCCCC(=O)O)C(=O)O)NC(=O)[C@H](C)NC(=O)[C@H](C)NC(=O)[C@H](CCC(N)=O)NC(=O)CNC(=O)[C@H](CCC(=O)O)NC(=O)[C@H](CC(C)C)NC(=O)[C@H](Cc1ccc(O)cc1)NC(=O)[C@H](CO)NC(=O)[C@H](CO)NC(=O)[C@@H](NC(=O)[C@H](CC(=O)O)NC(=O)[C@H](CO)NC(=O)[C@@H](NC(=O)[C@H](Cc1ccccc1)NC(=O)[C@@H](NC(=O)CNC(=O)[C@H](CCC(=O)O)NC(=O)C(C)(C)NC(=O)[C@@H](N)Cc1cnc[nH]1)[C@@H](C)O)[C@@H](C)O)C(C)C)C(=O)N[C@@H](C)C(=O)N[C@@H](Cc1c[nH]c2ccccc12)C(=O)N[C@@H](CC(C)C)C(=O)N[C@H](C(=O)N[C@@H](CCCNC(=N)N)C(=O)NCC(=O)N[C@@H](CCCNC(=N)N)C(=O)NCC(=O)O)C(C)C  QTcF change from baseline (12-lead Holter ECG; healthy humans; subcutaneous, 1.5 mg once weekly, 42 h, steady state; relative to: placebo): -2.5 ms
CCn1cc(C(=O)N2CCOCC2)c(=O)c2cc(NC3Cc4ccccc4C3)cnc21  Tmax (human, fed; oral suspension, 2000 mg/day twice daily, day 1, median): 3 h
CNCCCN1c2ccccc2CCc2cc(O)ccc21  chromatographic hydrophobicity index (reverse phase LC, C18; acetonitrile gradient, 0.1% formic acid; converted from retention time; relative to: Valko CHI standards): 49.9
Cc1cc(-c2nccc3c2ccn3CC(=O)Nc2ccc(-c3cnccn3)cn2)ccn1  subjects with gastrointestinal disorders (human; 20 mg once daily, multiple ascending dose): 0%
Cl.[2H]C([2H])([2H])CC(=O)c1cnc(NC(=O)C2CC2)cc1Nc1cccc(-c2ncn(C([2H])([2H])[2H])n2)c1OC  Tmax (human, fed, multiple dose; oral, 30 mg twice daily, tablet, day 14, median): 2.2 h
O=C(O)CN1CCCN2CCN(CC(=O)O)CCCN(CC1)Cc1cccc(n1)C2  intact complex (64Cu complex in rat plasma; 12 h, 37 °C): 98%
CO[C@H]1C[C@@H]2CC[C@@H](C)[C@@](O)(O2)C(=O)C(=O)N2CCCC[C@H]2C(=O)O[C@H]([C@H](C)C[C@@H]2CC[C@@H](O)[C@H](OC)C2)CC(=O)[C@H](C)/C=C(\C)[C@@H](O)[C@@H](OC)C(=O)[C@H](C)C[C@H](C)/C=C/C=C/C=C/1C  rectal temperature (healthy adult horses; oral, 0.06 mg/kg, 4 h): 37.3 ± 0.3 °C
CCOC(=O)[C@H](CCc1ccccc1)N[C@@H](C)C(=O)N1[C@H](C(=O)O)C[C@H]2CCCC[C@@H]21  freeze-thaw stability (human plasma; 1000 pg/mL, 3 cycles at -20 °C; relative to: nominal): 106 ± 6%
O=C1CC[C@H](N2Cc3cc(N4CCN(CC5CCN(c6ccc([C@@H]7c8ccc(O)cc8CC[C@@H]7c7ccccc7)cc6)CC5)CC4)ccc3C2=O)C(=O)N1  total dose excreted (radiolabelled mass balance; Sprague-Dawley rat, male, urine and feces; oral, 20 mg/kg, up to 168 h): 95.7%
Cc1c([C@H]2COC[C@@H](c3cc(Cl)cc(Cl)c3)N2)cnn1-c1ccccc1  logD (shake-flask, 1-octanol/buffer; pH 7.4): > 4.7
O=C(OC(C(F)(F)F)C(F)(F)F)N1CCN(Cc2cccc(Oc3ccccc3)c2)CC1  Ktrans (PET blocking study; rhesus monkey, brain OCC; 0.03 mg/kg, compound pretreatment, together with: [18F]T-401 tracer): 0.0008 min⁻¹
C/C=C/C[C@@H](C)C(=O)[C@H]1C(=O)N[C@@H](C(C)C)C(=O)N(C)CC(=O)N(C)[C@@H](CC(C)C)C(=O)N[C@@H](C(C)C)C(=O)N(C)[C@@H](CC(C)C)C(=O)N[C@@H](C)C(=O)N[C@H](C)C(=O)N(C)[C@@H](CC(C)C)C(=O)N(C)[C@@H](CC(C)C)C(=O)N(C)[C@@H](C(C)C)C(=O)N1C  total plasma concentration (Sprague Dawley rat, plasma; intravenous infusion, 0.89 mg/h/kg, 4 h, 4.5 h constant infusion): 5390 ng/mL
O=C(Nc1nc2cccc(-c3ccc(CN4CCS(=O)(=O)CC4)cc3)n2n1)C1CC1  treatment-emergent adverse events (refers to: gingival bleeding; human rheumatoid arthritis patients; oral, 75 mg once daily, 4 weeks, regardless of relatedness): 4.5%
CCO[C@H]1CCN(Cc2c(OC)cc(C)c3[nH]ccc23)[C@H](c2ccc(C(=O)O)cc2)C1  unbound AUC(0-12) (human moderate hepatic impairment, plasma; oral, 200 mg single dose, geometric mean): 4.43 µg·h/mL
C[C@@H](Oc1ccc(S(C)(=O)=O)cc1C(=O)N1C[C@@H]2C[C@]2(c2cc(C(F)(F)F)on2)C1)C(F)(F)F  %AUC extrapolated (elderly humans, plasma; oral, 50 mg once daily, single dose, geometric mean): 27.8%
Cc1ccc([C@@H]2O[C@H](CO)[C@@H](O)[C@H](O)[C@H]2O)cc1Cc1ccc(-c2ccc(F)cc2)s1  urinary magnesium excretion change (Japanese type 2 diabetes patients; 25 mg, day 15, 24 h urine collection; relative to: baseline): 9.29 mg
C[C@H]1CN(C(=O)CC#N)[C@]12CCN(c1ncnc3[nH]ccc13)C2  subjects with Fatigue (healthy human; oral, 6 mg single): 0%
CCCOc1ccc(NC(=O)CN2CCN(C)CC2)cc1-c1nc(CC)c(CC)c(=O)[nH]1  headache incidence (healthy Chinese men; 10 mg, together with: placebo alcohol): 20%
COc1ccc(F)cc1C(=O)NCc1ccc(-c2nn([C@@H](C)C(F)(F)F)c(N)c2C(N)=O)cc1  biliary clearance (human; intravenous, 22 µg): 0.24 L/h
Cc1nc2ncnn2c(O)c1NS(=O)(=O)c1ccc(Br)cc1  logD (octanol/buffer; pH 7.4): -0.25
C[C@@H](O)CCOC(=O)C[C@@H](C)O  diastolic blood pressure (human; oral drink, dose not given, 60 min post dose, mean): 66 mmHg
C[C@@H]1COCCN1c1cc(C2([S@](C)(=N)=O)CC2)nc(-c2cc[nH]c3nccc2-3)n1  Nasopharyngitis incidence (Japanese advanced solid tumour patients; oral, 240 mg twice daily, CTCAE grade ≥3): 0%
NC(=O)N1c2ccccc2C=Cc2ccccc21  adverse events incidence (refers to: psychiatric disorders (SOC); human male; oral, dose not given, CTCAE on-treatment AEs): 0%
[O]=[Co].[O]=[Co][O][Co]=[O]  cobalt concentration (rat, male, urine, 24-h collection; oral gavage, single, 300 mg/kg (220 mg Co/kg), day 1, vehicle 0.5% HPMC): 6340 µg/L
NC[C@H](NC(=O)c1ccc(C#Cc2ccccc2)cc1)C(=O)NO  logD (octanol/buffer; pH 7.4): 4.38
CCOC(=O)N1C[C@@H](c2cccnc2)N[C@@H](c2ccc(C(C)(C)C)cc2)C1  logD (shake-flask, 1-octanol/buffer; pH 7.4): > 4.7
O=C(COc1ccc(Cl)cc1)NC12CC(c3nnc([C@H]4C[C@@H](OC(F)(F)F)C4)o3)(C1)C2  participants with TEAE (human both sexes; oral, 100 mg single dose): 66.7%
CC(C)C[C@H](NC(=O)[C@@H](Cc1c[nH]c2ccccc12)NC(=O)[C@H](Cc1ccc(O)cc1)NC(=O)[C@H](CO)NC(=O)[C@H](Cc1c[nH]c2ccccc12)NC(=O)[C@H](Cc1c[nH]cn1)NC(=O)[C@@H]1CCC(=O)N1)C(=O)N[C@@H](CCCNC(=N)N)C(=O)N1CCC[C@H]1C(=O)NCC(N)=O  patients, drug-related nocturnal emission (Chinese CPP children, boys; intramuscular, 22.5 mg, 12 months, day 1, month 6): 25%
CCN1/C(=C/C(C)=O)Sc2ccc(F)cc21  PR interval (cynomolgus monkey; oral, 10 mg/kg, 2 h post-dose): 92 ± 2 ms
CCc1cc(C(=O)NC)c2nccc(N3CCc4c(cc(Cn5ccnc5)cc4-c4cn(C)nc4C(F)(F)F)C3=O)c2c1  reticulocytes (Sprague Dawley rats; oral, 50 mg/kg once daily, 7 days; relative to: red blood cells): 5.45 ± 1.06%
CC(Sc1nc2ccccc2[nH]1)C(=O)Nc1ccc(S(N)(=O)=O)cc1 (centres unmarked)  logD (octanol/buffer; pH 7.4): 2.47
CC(C)n1c(Nc2cccnc2)nc2cnc(Nc3ccc(N4CCN(C)CC4)cc3)nc21  subjects with TEAE (refers to: LDL cholesterol increased; healthy human, male; oral, dose not given, CTCAE grade 1-3): 2.4%
O=C1c2ccccc2C(=O)N1CCCc1nc(-c2cccc([N+](=O)[O-])c2)no1  logD (octanol/buffer; pH 7.4): 3.21
COc1nc(-c2cc(C)c(N[C@@H](C)c3cc(F)cc(F)c3)nn2)ccc1-n1cnc(C)c1  brain concentration (C57BL/6J mice, male, brain; oral, 10 mg/kg daily for 9 days, 4 h after last dose): 2030 ng/g
O=C1CC[C@H](N2Cc3cc(N4CCN(CC5CCN(c6ccc([C@@H]7c8ccc(O)cc8CC[C@@H]7c7ccccc7)cc6)CC5)CC4)ccc3C2=O)C(=O)N1  participants with adverse event (refers to: Myalgia; human; oral, 200 mg, together with: dabigatran etexilate 75 mg): 0%
O=C1CCc2ccc(OCCCCN3CCN(c4cccc(Cl)c4Cl)CC3)cc2N1  adverse event incidence (refers to: Rigidity; genotyped patients, CYP2D6 ultrarapid metabolizers; dose not given, long-acting oral or depot): 13%
Clc1ccc(Nc2ncnc3ccc(-c4cccc(N5CCOCC5)c4)cc23)cc1Cl  CLint (human liver microsomes): 60 µL/min/mg
Cc1cc(C)c(CNC(=O)c2cc(Cl)c3c(c2C)O[C@@](C)([C@H]2CC[C@H](N(C)C)CC2)O3)c(=O)[nH]1  AST increased grade ≥3 (human relapsed/refractory NHL; oral, 200 mg once daily, onset after cycle 1 day 1): 4.2%
COc1ccc([C@H]2COC[C@H](c3ccc(-c4ccccc4)cc3)N2)cc1  logD (shake-flask, 1-octanol/buffer; pH 7.4): > 4.7
NC1(C(=O)N[C@@H](CCO)c2ccc(Cl)cc2)CCN(c2nc[nH]c3nccc2-3)CC1  incidence of blood creatinine increased (metastatic CRPC patients; 320 mg b.i.d., any grade, treatment-related, together with: enzalutamide 160 mg daily): 0%
CCCCOc1nc(N)c2c(n1)N(Cc1cccc(CN3CCCC3)c1)CC(=O)N2  grade 1 TEAE (human; oral, 2 mg, drug interaction trial): 6.7%
